Measurements gathered from unrelated publications.
Each line is one published result; not all experiments were run side by side. “And” joins repeats or separate records; there may be more than shown. ± gives the spread as reported.

| Substance | assay | system | conditions | scale | quantity | result |
| --- | --- | --- | --- | --- | --- | --- |
| CCCCCCCCCC[N+](C)(C)C | substrate depletion | human liver microsomes | 0.5 µM, 0 to 3 h, 37 °C, with: NADPH | – | intrinsic clearance | 0.165 mL/h/mg protein |
| COc1ccc(-c2cc(=O)c3c(OC)c(OC)c(OC)cc3o2)cc1 | – | C57BL/6 mouse, male, testes | oral, 1% w/w in diet, 6 weeks, orange peel extract diet | baseline: content in orange peel | tissue to peel content ratio | 0.023% |
| O=C(NCCS)c1cccc(C(=O)NCCS)c1 | – | rat Sprague-Dawley male | intravenous, 1 mg/kg, 0.5 h | – | plasma concentration | 259 ng/mL |
| CC(C)[C@H](O)C(=O)N[C@H]1Cc2ccc3c(c2)[C@]2(C4=C(c5nc(CO)co5)N=C(O4)[C@H](C(C)(C)C)NC1=O)c1cc(F)ccc1N[C@@H]2O3 | – | NSG mouse, MDA-MB-231-BrM2 mammary fat pad tumour, tumour | intravenous, 10 mg/kg, single dose at MTD, with: paclitaxel 40 mg/kg | – | terminal t1/2 | 29.3 h |
| CCc1cc(O)ccc1-c1ccc2c(-c3nc4c([nH]3)CN(C(C)C)[C@H](C(=O)N3CC(N(C)C)C3)C4)n[nH]c2c1 | – | human, plasma | inhalation, 3 mg, single dose, geometric mean | – | t1/2 | 24.6 h |
| CN[C@@](C)(C[18F])C(=O)O | – | SCID mouse SK-OV-3 xenograft, blood | 120 min, post injection | – | tissue uptake | 0.4 ± 0.1 %ID/g |
| Cc1cc(C)c(/C=C2\C(=O)Nc3ccccc32)[nH]1 | – | human patients without enzyme-inducing anticonvulsants, plasma | intravenous, 145 mg/m^2, week 1 | – | terminal half-life | 1.27 ± 0.41 h |
| FFEE (N-dodecyl chain) | TEM | peptide, DPBS | 24 h aging | – | nanofibre diameter | 8.5 ± 0.9 nm |
| CC1N=C(c2ccccc2F)c2cc(Nc3ccc(C(F)(F)F)cc3)ccc2NC1=O (stereo not drawn) | shake flask | PBS | 24 h, pH 7.4 | – | solubility | 1.44 µM |
| Oc1cccc2ccccc12 | fish short-term reproduction | Oryzias latipes, female, water, flow-through | 80.0 µg/L, end of exposure | – | body length | 39.3 ± 0.3 mm |
| CC[C@H](C)C(=O)O[C@H]1C[C@H](O)C=C2C=C[C@H](C)[C@H](CC[C@@H](O)C[C@@H](O)CC(=O)O)[C@H]21 | – | healthy volunteers, plasma | oral, dose not given, with: 2D regimen | – | AUC | 86 ng·h/mL |
| CCCCCOc1ccc(-c2cc(-c3ccc(C(=O)N[C@H]4C[C@@H](O)[C@@H](O)NC(=O)[C@@H]5[C@@H](O)[C@@H](C)CN5C(=O)[C@H]([C@H](O)CC(N)=O)NC(=O)[C@H]([C@H](O)[C@@H](O)c5ccc(O)c(OS(=O)(=O)O)c5)NC(=O)[C@@H]5C[C@@H](O)CN5C(=O)[C@H]([C@@H](C)O)NC4=O)cc3)no2)cc1 | – | human paediatric patients 6 to sample C years, plasma | intravenous, 3 mg/kg once daily, day 7, mean | – | AUC(0-tau) | 248000 ng·h/mL |
| Cc1cccc(C)c1OCC(=O)N[C@@H](Cc1ccccc1)[C@@H](O)C[C@H](Cc1ccccc1)NC(=O)[C@H](C(C)C)N1CCCNC1=O | – | male Sprague-Dawley rats, plasma | oral, 160 mg/kg, with: QPD 6 g/kg oral, 30 min before | – | AUC(0-inf) | 12400 ng·h/mL |
| Cn1cc(-c2ccc(Cn3cc(C(=O)N[C@H]4CCCC[C@@H]4O)c4c(F)cc(F)cc43)cn2)cn1 | – | rat Sprague-Dawley, male, brain, plasma | intravenous, 0.20 to 0.25 mg/kg, 0.25 h, cassette dosing | – | brain/plasma ratio Kp | 0.113 |
| CS(=O)(=O)CCCn1c(Cn2c(=O)n(CC(F)(F)F)c3ccncc32)cc2cc(Cl)ccc21 | – | RSV-infected infants | concentration not given, mid dose cohorts | – | patients with high MCH | 8% |
| CC[C@H]1CN2CCc3cc(OC)c(OC)cc3[C@@H]2C[C@@H]1C[C@H]1NCCc2cc(OC)c(OC)cc21 | – | mouse, male | intravenous, 16 mg/kg, single toxic dose | – | time to convulsions and death | ≤ 1 min |
| Cc1sc2c(c1C)C(c1ccc(Cl)cc1)=N[C@@H](CC(=O)OC(C)(C)C)c1nnc(C)n1-2 | LC-MS | Ringer's solution | 50 ng/mL, time not given, glass vessel, low-bind vial | – | recovery vs nominal | 61.1% and 69% |
| CSCC[C@@H]1NC(=O)[C@H](CC(=O)O)NC(=O)CNC(=O)[C@H](CCCNC(=N)N)NC(=O)[C@H](C)NC(=O)[C@H](CCC(=O)O)NC(=O)[C@H](CCCNC(=N)N)NC(=O)[C@@H]2CSSC[C@@H]3NC(=O)[C@H](CO)NC(=O)[C@H]([C@@H](C)O)NC(=O)[C@@H]4CCCN4C(=O)[C@H](C)NC(=O)[C@H](Cc4c[nH]c5ccccc45)NC(=O)[C@H](CC(=O)O)NC(=O)CNC(=O)[C@H](CCCNC(=N)N)NC(=O)CNC(=O)[C@H](CCC(N)=O)NC(=O)[C@@H]4CCCN4C(=O)[C@@H](NC(=O)CNC(=O)C(C)F)CSSC[C@H](NC(=O)CNC(=O)[C@H](C)NC(=O)[C@H](CC(C)C)NC(=O)[C@H](CSSC[C@@H](C(=O)NCC(N)=O)NC(=O)[C@H]([C@@H](C)O)NC(=O)[C@H](CCCNC(=N)N)NC(=O)[C@@H]4CCCN4C1=O)NC(=O)[C@H](CC(=O)O)NC(=O)[C@H](CO)NC(=O)[C@H](CC(=O)O)NC(=O)[C@H](CCC(N)=O)NC(=O)[C@H](CO)NC3=O)C(=O)N[C@@H](C(C)C)C(=O)N2 (stereo partly drawn) [fluorine-18 labelled] | – | nude mice U-87 MG xenograft, lungs | intravenous, 2.5 h | – | tissue uptake | 0.54 ± 0.1 %ID/g |
| COC(=O)N[C@H](C(=O)N1CCC[C@H]1C(=O)Nc1ccc([C@@H]2CC[C@@H](c3ccc(NC(=O)[C@@H]4CCCN4C(=O)[C@@H](NC(=O)OC)C(C)C)cc3)N2c2ccc(C(C)(C)C)cc2)cc1)C(C)C | – | healthy human volunteers, plasma | oral, dose not given, with: omeprazole plus 2D regimen | – | AUC(0-24) | 1480 ng·h/mL |
| CC[C@H](C)[C@H](NC(=O)[C@H](CCCCN)NC(=O)[C@H](CCCCN)NC(=O)[C@H](CC(C)C)NC(=O)[C@@H](NC(=O)[C@H](CCCCN)NC(=O)[C@H](C)NC(=O)[C@H](C)NC(=O)[C@@H](NC(=O)CNC(=O)[C@H](C)NC(=O)[C@@H](NC(=O)[C@H](CCCCN)NC(=O)[C@@H]1CCCN1C(=O)[C@H](Cc1ccccc1)NC(=O)[C@@H](N)Cc1ccccc1)C(C)C)C(C)C)C(C)C)C(=O)N[C@@H](Cc1ccccc1)C(=O)N[C@H]1CSSC[C@@H](C(=O)O)NC(=O)[C@H](CCCCN)NC(=O)[C@H](CCCCN)NC(=O)[C@H](CO)NC(=O)[C@H]([C@@H](C)CC)NC(=O)[C@H]([C@@H](C)O)NC1=O | haemolysis | horse erythrocytes | 2 h, 37 °C | – | HC10 | 13.7 µM |
| Cc1ccc(Nc2nc(-c3ccc(-c4ccccc4)cc3)cs2)nc1 | – | FVB mouse | oral in liquid diet, 210 mg/kg/day, 14 days | – | lethal toxicity | not toxic |
| [123I]c1cncc(OC[C@@H]2CCN2)c1 | SPECT | human, thalamus | intravenous bolus plus infusion, 8.1 mCi | baseline: plasma | tissue/plasma ratio | 35.8 |
| CC[C@H](C)[C@H](NC(=O)[C@H](CCCCN)NC(=O)[C@H](Cc1c[nH]c2ccccc12)NC(=O)[C@H](Cc1c[nH]c2ccccc12)NC(=O)[C@H](CCCCN)NC(=O)[C@H](CCCCN)NC(=O)[C@H](CCCCN)NC(=O)[C@H](Cc1c[nH]c2ccccc12)NC(=O)[C@H](CCCCN)NC(=O)[C@H](CCCCN)NC(=O)[C@H](Cc1c[nH]c2ccccc12)NC(=O)[C@H](CCCCN)NC(=O)[C@H](CCCCN)NC(=O)[C@@H](NC(=O)[C@@H](NC(=O)[C@H](CCCCN)NC(=O)[C@@H](N)CCCNC(=N)N)[C@@H](C)CC)[C@@H](C)CC)C(=O)N[C@@H](Cc1c[nH]c2ccccc12)C(=O)N[C@@H](Cc1c[nH]c2ccccc12)C(=O)N[C@@H](CCCCN)C(=O)NCCOCCOCC(N)=O | ANS fluorescence | water | 30 min, room temperature | – | critical aggregation concentration | ~4 µg/mL |
| NC(=O)c1nc(F)c[nH]c1=O | UV-Vis spectrophotometry | supercritical CO2 | 120 min, 318 K, 30 MPa, 890.92 kg/m^3 | – | solubility | 2060 µg/mL |

Repeated from above:
| Substance | assay | system | conditions | scale | quantity | result |
| --- | --- | --- | --- | --- | --- | --- |
| CC[C@H]1CN2CCc3cc(OC)c(OC)cc3[C@@H]2C[C@@H]1C[C@H]1NCCc2cc(OC)c(OC)cc21 | – | mouse, male | intravenous, 16 mg/kg, single toxic dose | – | time to convulsions and death | ≤ 1 min |
| Cc1sc2c(c1C)C(c1ccc(Cl)cc1)=N[C@@H](CC(=O)OC(C)(C)C)c1nnc(C)n1-2 | LC-MS | Ringer's solution | 50 ng/mL, time not given, glass vessel, low-bind vial | – | recovery vs nominal | 61.1% and 69% |
| CSCC[C@@H]1NC(=O)[C@H](CC(=O)O)NC(=O)CNC(=O)[C@H](CCCNC(=N)N)NC(=O)[C@H](C)NC(=O)[C@H](CCC(=O)O)NC(=O)[C@H](CCCNC(=N)N)NC(=O)[C@@H]2CSSC[C@@H]3NC(=O)[C@H](CO)NC(=O)[C@H]([C@@H](C)O)NC(=O)[C@@H]4CCCN4C(=O)[C@H](C)NC(=O)[C@H](Cc4c[nH]c5ccccc45)NC(=O)[C@H](CC(=O)O)NC(=O)CNC(=O)[C@H](CCCNC(=N)N)NC(=O)CNC(=O)[C@H](CCC(N)=O)NC(=O)[C@@H]4CCCN4C(=O)[C@@H](NC(=O)CNC(=O)C(C)F)CSSC[C@H](NC(=O)CNC(=O)[C@H](C)NC(=O)[C@H](CC(C)C)NC(=O)[C@H](CSSC[C@@H](C(=O)NCC(N)=O)NC(=O)[C@H]([C@@H](C)O)NC(=O)[C@H](CCCNC(=N)N)NC(=O)[C@@H]4CCCN4C1=O)NC(=O)[C@H](CC(=O)O)NC(=O)[C@H](CO)NC(=O)[C@H](CC(=O)O)NC(=O)[C@H](CCC(N)=O)NC(=O)[C@H](CO)NC3=O)C(=O)N[C@@H](C(C)C)C(=O)N2 (stereo partly drawn) [fluorine-18 labelled] | – | nude mice U-87 MG xenograft, lungs | intravenous, 2.5 h | – | tissue uptake | 0.54 ± 0.1 %ID/g |
| COC(=O)N[C@H](C(=O)N1CCC[C@H]1C(=O)Nc1ccc([C@@H]2CC[C@@H](c3ccc(NC(=O)[C@@H]4CCCN4C(=O)[C@@H](NC(=O)OC)C(C)C)cc3)N2c2ccc(C(C)(C)C)cc2)cc1)C(C)C | – | healthy human volunteers, plasma | oral, dose not given, with: omeprazole plus 2D regimen | – | AUC(0-24) | 1480 ng·h/mL |
